Experimental data pooled from the literature.
Parts stem from different laboratories: compare values within a part only. “And” joins repeats or separate records; there may be more than shown.
Sequence of UniProt Q9BYP7 (whole entry, looked up): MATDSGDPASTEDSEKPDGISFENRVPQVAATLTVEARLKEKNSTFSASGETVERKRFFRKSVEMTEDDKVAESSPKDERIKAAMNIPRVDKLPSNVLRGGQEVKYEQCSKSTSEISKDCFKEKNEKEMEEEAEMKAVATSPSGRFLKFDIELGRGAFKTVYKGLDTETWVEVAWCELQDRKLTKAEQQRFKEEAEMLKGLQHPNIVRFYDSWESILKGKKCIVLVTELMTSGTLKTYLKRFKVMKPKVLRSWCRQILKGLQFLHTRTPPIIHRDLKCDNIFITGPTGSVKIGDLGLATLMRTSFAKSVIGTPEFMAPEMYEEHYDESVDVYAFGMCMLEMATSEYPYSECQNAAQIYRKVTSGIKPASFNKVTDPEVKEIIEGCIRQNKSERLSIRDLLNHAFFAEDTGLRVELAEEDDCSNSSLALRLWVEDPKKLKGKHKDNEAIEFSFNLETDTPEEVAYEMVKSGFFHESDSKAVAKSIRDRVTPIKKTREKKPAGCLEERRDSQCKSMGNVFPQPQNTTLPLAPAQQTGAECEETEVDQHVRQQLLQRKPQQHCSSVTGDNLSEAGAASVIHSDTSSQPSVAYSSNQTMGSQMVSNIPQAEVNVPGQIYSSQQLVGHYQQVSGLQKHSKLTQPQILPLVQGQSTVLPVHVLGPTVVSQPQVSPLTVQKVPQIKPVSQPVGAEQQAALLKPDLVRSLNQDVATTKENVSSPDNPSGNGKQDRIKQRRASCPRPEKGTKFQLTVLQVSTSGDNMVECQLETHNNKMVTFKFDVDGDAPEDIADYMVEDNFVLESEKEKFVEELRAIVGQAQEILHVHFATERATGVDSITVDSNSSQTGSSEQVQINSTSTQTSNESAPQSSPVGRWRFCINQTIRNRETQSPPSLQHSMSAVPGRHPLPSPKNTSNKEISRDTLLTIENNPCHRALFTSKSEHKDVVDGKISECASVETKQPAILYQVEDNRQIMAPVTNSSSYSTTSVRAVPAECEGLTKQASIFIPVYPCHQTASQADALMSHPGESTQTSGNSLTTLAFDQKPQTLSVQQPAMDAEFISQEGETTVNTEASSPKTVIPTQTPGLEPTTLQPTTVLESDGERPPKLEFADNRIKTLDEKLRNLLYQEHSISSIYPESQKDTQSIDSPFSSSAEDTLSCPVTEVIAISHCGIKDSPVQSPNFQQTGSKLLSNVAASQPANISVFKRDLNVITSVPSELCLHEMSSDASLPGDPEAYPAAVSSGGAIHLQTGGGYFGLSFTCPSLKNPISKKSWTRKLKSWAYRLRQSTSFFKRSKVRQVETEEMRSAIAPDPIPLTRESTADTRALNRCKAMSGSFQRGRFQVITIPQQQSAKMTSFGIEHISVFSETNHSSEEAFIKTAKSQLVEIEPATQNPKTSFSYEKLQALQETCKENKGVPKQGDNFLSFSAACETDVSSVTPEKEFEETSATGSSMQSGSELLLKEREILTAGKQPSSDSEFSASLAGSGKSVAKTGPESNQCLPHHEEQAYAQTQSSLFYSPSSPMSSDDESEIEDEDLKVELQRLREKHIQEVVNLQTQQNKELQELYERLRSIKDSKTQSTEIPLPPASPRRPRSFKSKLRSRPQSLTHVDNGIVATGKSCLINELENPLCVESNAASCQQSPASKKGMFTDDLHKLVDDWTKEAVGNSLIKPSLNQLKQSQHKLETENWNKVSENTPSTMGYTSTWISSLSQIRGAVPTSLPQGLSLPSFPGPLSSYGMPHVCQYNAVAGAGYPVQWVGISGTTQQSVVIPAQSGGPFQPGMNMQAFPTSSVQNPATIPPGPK
Sequence of UniProt Q9NRP7 (whole entry, looked up): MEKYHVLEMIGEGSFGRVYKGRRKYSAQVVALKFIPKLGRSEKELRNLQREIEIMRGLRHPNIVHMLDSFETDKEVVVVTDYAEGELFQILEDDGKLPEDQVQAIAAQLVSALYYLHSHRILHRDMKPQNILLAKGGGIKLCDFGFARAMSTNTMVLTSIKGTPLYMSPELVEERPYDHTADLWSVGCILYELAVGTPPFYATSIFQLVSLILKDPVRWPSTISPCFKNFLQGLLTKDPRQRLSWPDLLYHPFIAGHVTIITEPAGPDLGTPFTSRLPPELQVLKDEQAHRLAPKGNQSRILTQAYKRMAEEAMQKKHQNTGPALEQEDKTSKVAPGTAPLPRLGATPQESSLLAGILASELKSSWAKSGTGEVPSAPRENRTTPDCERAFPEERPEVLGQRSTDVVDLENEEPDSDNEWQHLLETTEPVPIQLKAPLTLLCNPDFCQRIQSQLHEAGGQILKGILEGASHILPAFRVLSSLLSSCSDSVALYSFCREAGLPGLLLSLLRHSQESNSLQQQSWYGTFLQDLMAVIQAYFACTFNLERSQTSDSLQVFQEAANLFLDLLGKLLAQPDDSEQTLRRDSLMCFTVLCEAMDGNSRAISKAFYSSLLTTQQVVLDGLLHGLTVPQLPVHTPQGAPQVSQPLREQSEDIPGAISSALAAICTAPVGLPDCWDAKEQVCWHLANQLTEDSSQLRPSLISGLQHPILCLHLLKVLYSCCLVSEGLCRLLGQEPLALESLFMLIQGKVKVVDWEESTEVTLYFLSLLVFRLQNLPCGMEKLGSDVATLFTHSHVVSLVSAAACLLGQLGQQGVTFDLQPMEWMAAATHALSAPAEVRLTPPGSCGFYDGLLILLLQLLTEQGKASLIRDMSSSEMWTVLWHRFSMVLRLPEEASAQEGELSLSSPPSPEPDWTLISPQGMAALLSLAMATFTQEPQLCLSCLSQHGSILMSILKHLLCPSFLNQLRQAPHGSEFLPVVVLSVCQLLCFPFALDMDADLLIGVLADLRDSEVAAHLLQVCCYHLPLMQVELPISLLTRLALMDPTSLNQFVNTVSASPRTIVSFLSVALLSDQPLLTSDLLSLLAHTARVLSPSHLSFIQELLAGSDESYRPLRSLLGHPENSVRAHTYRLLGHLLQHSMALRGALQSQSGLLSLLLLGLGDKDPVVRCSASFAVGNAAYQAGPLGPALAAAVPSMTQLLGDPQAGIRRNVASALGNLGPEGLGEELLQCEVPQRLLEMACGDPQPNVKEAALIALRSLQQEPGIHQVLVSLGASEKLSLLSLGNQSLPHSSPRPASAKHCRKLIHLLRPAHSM
Sequence of UniProt P29597 (whole entry, looked up): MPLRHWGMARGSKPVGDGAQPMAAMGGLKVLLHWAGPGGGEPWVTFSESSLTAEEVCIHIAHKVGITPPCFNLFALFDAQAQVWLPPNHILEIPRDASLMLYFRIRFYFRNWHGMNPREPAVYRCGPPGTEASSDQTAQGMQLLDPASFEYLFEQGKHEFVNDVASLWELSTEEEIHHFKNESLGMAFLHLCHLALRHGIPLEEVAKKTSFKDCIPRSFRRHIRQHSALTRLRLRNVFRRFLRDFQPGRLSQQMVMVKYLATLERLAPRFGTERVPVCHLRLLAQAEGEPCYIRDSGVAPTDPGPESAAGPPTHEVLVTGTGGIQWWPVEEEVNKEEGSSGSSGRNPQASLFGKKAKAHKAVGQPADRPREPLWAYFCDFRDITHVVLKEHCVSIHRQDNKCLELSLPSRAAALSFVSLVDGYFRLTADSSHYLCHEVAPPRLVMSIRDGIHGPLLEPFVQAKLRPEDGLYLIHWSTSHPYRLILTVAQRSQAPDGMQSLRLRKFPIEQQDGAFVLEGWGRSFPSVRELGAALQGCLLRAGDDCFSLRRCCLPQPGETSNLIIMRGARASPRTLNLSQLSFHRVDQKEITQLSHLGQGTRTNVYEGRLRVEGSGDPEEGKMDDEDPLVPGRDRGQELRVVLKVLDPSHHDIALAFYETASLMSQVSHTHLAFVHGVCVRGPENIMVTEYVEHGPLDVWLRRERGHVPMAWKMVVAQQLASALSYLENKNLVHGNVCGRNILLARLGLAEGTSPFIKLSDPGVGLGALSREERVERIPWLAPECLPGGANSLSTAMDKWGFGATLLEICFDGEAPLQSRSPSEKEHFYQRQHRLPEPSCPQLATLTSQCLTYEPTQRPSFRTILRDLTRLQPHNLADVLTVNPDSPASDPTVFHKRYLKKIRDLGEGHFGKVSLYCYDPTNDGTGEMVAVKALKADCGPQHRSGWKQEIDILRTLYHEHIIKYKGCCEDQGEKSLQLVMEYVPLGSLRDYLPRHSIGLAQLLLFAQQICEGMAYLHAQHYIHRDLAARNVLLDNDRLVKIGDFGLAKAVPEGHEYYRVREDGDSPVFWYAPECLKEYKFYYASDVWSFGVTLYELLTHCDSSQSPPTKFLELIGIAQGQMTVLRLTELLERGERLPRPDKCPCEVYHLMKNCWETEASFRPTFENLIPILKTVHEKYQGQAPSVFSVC
Sequence of UniProt Q99759 (whole entry, looked up): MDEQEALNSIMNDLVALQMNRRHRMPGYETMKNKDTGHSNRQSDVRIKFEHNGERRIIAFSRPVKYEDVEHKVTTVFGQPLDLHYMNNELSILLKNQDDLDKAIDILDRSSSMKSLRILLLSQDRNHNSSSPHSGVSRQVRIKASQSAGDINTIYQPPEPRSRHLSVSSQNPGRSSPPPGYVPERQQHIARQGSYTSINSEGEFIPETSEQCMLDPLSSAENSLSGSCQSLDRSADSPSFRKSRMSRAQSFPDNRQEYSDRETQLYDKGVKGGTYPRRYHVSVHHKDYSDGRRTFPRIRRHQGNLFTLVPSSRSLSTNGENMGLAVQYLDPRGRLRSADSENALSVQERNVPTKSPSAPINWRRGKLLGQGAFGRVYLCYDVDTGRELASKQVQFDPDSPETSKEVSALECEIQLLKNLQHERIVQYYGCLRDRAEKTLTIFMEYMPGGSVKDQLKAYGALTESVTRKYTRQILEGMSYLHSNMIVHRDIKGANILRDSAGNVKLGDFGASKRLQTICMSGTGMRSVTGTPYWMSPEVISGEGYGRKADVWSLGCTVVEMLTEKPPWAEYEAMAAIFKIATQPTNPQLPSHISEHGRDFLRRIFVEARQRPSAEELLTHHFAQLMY

Sample 1
Cell line: Huh-7
Concentration: 10 µM
Time: 24 h
`COc1cc(NS(=O)(=O)c2ccc(N)cc2)nc(OC)n1` gave a viability of 98.8%.
`C[C@H]1C[C@@H]2[C@H]([C@@H](O)C[C@@]3(C)[C@H]2CC[C@]3(O)C(=O)CO)[C@@]2(C)C=CC(=O)C=C12` gave a viability of 98.8%.
`CCCC(=O)Nc1ccc(OCC(O)CNC(C)C)c(C(C)=O)c1` (stereo not drawn) gave a viability of 103%.
`CN(C)CCC=C1c2ccccc2C=Cc2ccccc21` gave a viability of 100%.
For `COc1cc(C(=O)NCc2ccc(OCCN(C)C)cc2)cc(OC)c1OC`, the viability was 99.7%.

Sample 2
Compound: COc1ccc(-c2c(Nc3ccccn3)[nH]c3c(C4=CCCCC4)c(-c4ccccc4)nn3c2=O)cc1
Method: LC-MS/MS
Species: human
Medium: plasma
Route: oral
It gave 0 h for Tlag (150 mg once daily).
For 50 mg once daily: Tlag read 0 h.
400 mg once daily — Tlag: 0 h.

Sample 3
Target: His6 tag
Method: AlphaScreen counter screen
Concentration: concentration not given
With `Cc1nc(NC(=O)N2CCC[C@H]2C(N)=O)sc1-c1ccnc(C(C)(C)C(F)(F)F)c1` the inhibition was 11.6%.
`O=C(O)CCCC(=O)NNC(=O)c1ccc(Cl)cc1` has an inhibition of -4.2%.
`COc1ccc(CNC(=O)Nc2ncc([N+](=O)[O-])s2)cc1` has an inhibition of 5.35%.
The inhibition of `Cn1c(=O)n(-c2ccc(C(C)(C)C#N)cc2)c2c3cc(-c4cnc5ccccc5c4)ccc3ncc21` is reported as 9.25%.

Sample 4
Cell line: HaCaT
Concentration: 100 µM
Time: 36 h
`C[C@@H](NCCc1ccc(O)cc1)[C@@H](O)c1ccc(O)cc1` (racemic) has a viability of 88.4%.
`C[C@H]1[C@H](NC(=O)/C(=N\OC(C)(C)C(=O)O)c2csc(N)n2)C(=O)N1S(=O)(=O)O` gave a viability of 97.3%.
With `CC(C)(Oc1ccc(Cl)cc1)C(=O)OCCOC(=O)c1cccnc1` the viability was 110%.
`COc1cc(Nc2c(C#N)cnc3cc(OCCCN4CCN(C)CC4)c(OC)cc23)c(Cl)cc1Cl` gave a viability of 110%.
With `CCC[C@@H]1C[C@@H](C(=O)N[C@@H]([C@H]2O[C@H](SC)[C@H](OP(=O)(O)O)[C@@H](O)[C@H]2O)[C@H](C)Cl)N(C)C1` the viability was 90%.

Sample 5
Species: mouse
Medium: microsomes or S9
Concentration: 2 µM
Time: 0.5 h
With `CCOc1cc(=O)n2c(c1C(=O)NCC1CCCO1)CCCCC2` (stereo not drawn) the remaining compound was 60.9%.
`Cc1nn(CCOC(=O)c2ccoc2)c2ncc(Br)cc12` has a remaining compound of 7.32%.
`CC(C)[C@@H](C(=O)Nc1n[nH]c2cccc(F)c12)N1Cc2ccccc2C1=O` has a remaining compound of 1.64%.
`CCN(CC)S(=O)(=O)c1ccc2nc(NCc3cc(F)cc(F)c3)cnc2c1` gave a remaining compound of 2.05%.

Sample 6
Structure (SMILES): O=C1NC(c2ccccn2)Sc2ccccc21 (stereo not drawn)
Concentration: 1 µM
The remaining binding was 89% (CSNK1A1L (Homo sapiens, UniProt Q8N752); cell-free assay, competition with immobilised ligand).
For EGFR (Homo sapiens, UniProt P00533, L858R); cell-free assay, competition with immobilised ligand: remaining binding read 86%.
For Non-receptor tyrosine-protein kinase TYK2, JH1 (TYK2, Homo sapiens, UniProt P29597); cell-free assay, competition with immobilised ligand: remaining binding read 88%.
The remaining binding was 99% (ACVR1B (Homo sapiens, UniProt P36896); cell-free assay, competition with immobilised ligand).
It gave 100% for remaining binding (WNK3 (Homo sapiens, UniProt Q9BYP7); cell-free assay, competition with immobilised ligand).
FLT3 (Homo sapiens, UniProt P36888, D835H); cell-free assay, competition with immobilised ligand — remaining binding: 65%.
For Tyrosine-protein kinase ABL1, non-phosphorylated (ABL1, Homo sapiens, UniProt P00519, F317L); cell-free assay, competition with immobilised ligand: remaining binding read 100%.
For MKNK2 (Homo sapiens, UniProt Q9HBH9); cell-free assay, competition with immobilised ligand: remaining binding read 100%.
MAP2K4 (Homo sapiens, UniProt P45985); cell-free assay, competition with immobilised ligand — remaining binding: 93%.
ERN1 (Homo sapiens, UniProt O75460); cell-free assay, competition with immobilised ligand — remaining binding: 100%.
The remaining binding was 90% (Aurora kinase C (AURKC, Homo sapiens, UniProt Q9UQB9); cell-free assay, competition with immobilised ligand).
The remaining binding was 81% (Ribosomal protein S6 kinase alpha-6, C-terminal kinase domain (RPS6KA6, Homo sapiens, UniProt Q9UK32); cell-free assay, competition with immobilised ligand).
PIK3CA (Homo sapiens, UniProt P42336, Q546K); cell-free assay, competition with immobilised ligand — remaining binding: 100%.
EGFR (Homo sapiens, UniProt P00533, T790M); cell-free assay, competition with immobilised ligand — remaining binding: 96%.
The remaining binding was 79% (STK36 (Homo sapiens, UniProt Q9NRP7); cell-free assay, competition with immobilised ligand).
The remaining binding was 85% (SRC (Homo sapiens, UniProt P12931); cell-free assay, competition with immobilised ligand).
For BMPR2 (Homo sapiens, UniProt Q13873); cell-free assay, competition with immobilised ligand: remaining binding read 80%.
It gave 100% for remaining binding (SBK1 (Homo sapiens, UniProt Q52WX2); cell-free assay, competition with immobilised ligand).
It gave 74% for remaining binding (CSNK1D (Homo sapiens, UniProt P48730); cell-free assay, competition with immobilised ligand).
The remaining binding was 72% (MET (Homo sapiens, UniProt P08581, M1250T); cell-free assay, competition with immobilised ligand).
MET (Homo sapiens, UniProt P08581, Y1235D); cell-free assay, competition with immobilised ligand — remaining binding: 96%.
It gave 100% for remaining binding (CHUK (Homo sapiens, UniProt O15111); cell-free assay, competition with immobilised ligand).
It gave 93% for remaining binding (MAP3K3 (Homo sapiens, UniProt Q99759); cell-free assay, competition with immobilised ligand).
The remaining binding was 100% (AAK1 (Homo sapiens, UniProt Q2M2I8); binding).
It gave 100% for remaining binding (CDK17 (Homo sapiens, UniProt Q00537); cell-free assay, competition with immobilised ligand).

Sample 7
Cell line: mouse MPNST tumor cells
Method: high-content nuclear imaging
Measured: cell number
Concentration: 10 µM
Time: 12 h
Setting: mean of 2 replicates
Baseline: plate mean
Reading: higher = more cells
For `O=C(Nc1cccc2cccnc12)c1ccc(N2C(=O)[C@@H]3[C@H](C2=O)[C@H]2C=C[C@@H]3C2)cc1`, the nuclei count was 2.21 z-score.
The nuclei count of `CNC(=O)Nc1ccc2c(c1)CC[C@@]21OC(=O)N(CC(=O)N(Cc2ccc(F)cc2)[C@@H](C)C(F)(F)F)C1=O` is reported as 3.75 z-score and 6.49 z-score.
For `COc1cccc(OC)c1-c1cc(C(=O)NC2(C(=O)O)C3CC4CC(C3)CC2C4)nn1-c1ccnc2cc(Cl)ccc12` (stereo not drawn), the nuclei count was 1.87 z-score.
For `OCCOCCN1CCN(C(c2ccccc2)c2ccc(Cl)cc2)CC1` (stereo not drawn), the nuclei count was 1.04 z-score.
`Cc1ccc2cccc(NC(=O)c3ccc(OC(C)C)cc3)c2n1` has a nuclei count of 1.51 z-score.

Repeated from above (sample 6):
The remaining binding was 90% (Aurora kinase C (AURKC, Homo sapiens, UniProt Q9UQB9); cell-free assay, competition with immobilised ligand).
The remaining binding was 81% (Ribosomal protein S6 kinase alpha-6, C-terminal kinase domain (RPS6KA6, Homo sapiens, UniProt Q9UK32); cell-free assay, competition with immobilised ligand).
PIK3CA (Homo sapiens, UniProt P42336, Q546K); cell-free assay, competition with immobilised ligand — remaining binding: 100%.
